Assay results gathered from unrelated publications.
Each numbered part is a random draw from the data of one study; scales do not carry over between parts.

Sample 1 — method: RNA Bind-n-Seq; molecule type: RNA; medium: in vitro; concentration: 365 nM; reference: no-protein control; reading: higher = stronger binding
Target: RNA binding protein fox-1 homolog 2, RRM domain, GST-SBP tag (RBFOX2, Homo sapiens, UniProt O43251-10, residues 100-194)
Notes: natural RNA segment, single round, ends assumed
Shared flanks, not repeated: GGGAGUUCUACAGUCCGACGAUC … UGGAAUUCUCGGGUGCCAA
Construct (chain): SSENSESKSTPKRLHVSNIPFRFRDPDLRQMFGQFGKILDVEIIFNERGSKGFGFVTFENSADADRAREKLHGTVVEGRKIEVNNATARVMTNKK
Sequence	RBNS enrichment (R)
UGUUGUGUCUUCCCCCAGGGCCUGUCCUGUACCGAGCUCUGUCUGUUCCAGCCUUCAUCCUUCCUGGCUGUUGCUUUUCCUCUUAAGGGCCUCAGAACUCUUGCUCUUCC	0.517
AGAAAGCUAACAGUCAGUUUUUGCAACCUGUCUUCUGGAAGCAAAGUGAAAAGAAAUGACCAGGGCUAUGGCAAAAUCUGGUGAAUGUCGUGAGCUCUCCUACAUCUAUU	0.382
GUCAGAACCUUGCAAUAAGCCAAGGUAUUACCAGUAAAUUGGUUGUAUAUACAAUAAAAUUGCACCCUUUUUUAAACAAAACAAACUAAGCAAUAGUUUGGGCAGUUUUA	0.346
UUUGAGACAGGUGUUUUCAUCUUCUCUCAGCUCAGUGCUGUUUUGUACAGUCUCUGUGGCUUGGUUGAGUAUGCUCUUUCCUGUGCCAGGUCUUGCUCUGGCUGUUCGCU	0.4
CCUCCUCAGUGUUCCACAAGCUUCAGGUCAUCAGGUCGGUCCAACUGAAGGCAUGAAAAUCAAGUGUUCCCUGGAGUUUUGAAGCGAAGAUUCAGGGACAAGUUGAAAGG	0.755
AAAAAUAAAAUCUUUACCUGUCGAAUUGUUGCUGCAGAUGAUUGUUGUGGAAAAUCUGGAUCAUUGACCUCUGUGCUUUCAUUCCUAGAGAUGUUUUAUAGUUACAUGAG	0.47
AGGAGAGUAAAUAACUGUGAACAAGAGGCUCUGCCCUUAGGUCUUUGUGGCUGUUUAAGUCACCAACAAUAGAGUCAGGGUAAAGAAUAAAAACACUUUCAUAGCCUCAU	0.344
UAUUUCUUUCAUUCAUAUCCCUGCUGAAAUAUUGGUACUAGCAACUUAAAGUUGGCAAGUCUCAUCUUCAGUAAUACGGAUGCCAUGGGAGUGGCCAGGCCAGAUUGAAG	0.314
AUGCACAAAACACUGCUAGAAGGCUCACCUCUCAAAACACGACUCUUUGCAUCACUAUUAAAGAGCAGAAAGUUCUAGAAAUGAUCCCAGCCUCAUCCCCUAUACAGUUA	1.91
GCUUCUCGUUCUUAGCAGGGAUGAACAGGCACACUGAGGUGAACAUCUGGCCCAAAUGAAGCAUACCCUGUCACGCCCUUGGGAAAACAAAUAGGACCGAACAAAGCUAC	0.468
CUUCUAAGAACCGUUUUCCCAAAUGGGUUCCCAUAUUCAUGCACCCAAAGCAAUGGUCCCCAAGCACUGAUGAAAACUAAUAUGCAUUUCCCAAAGACCCACACUAUGUA	0.585
AAGCACAACACUAAUGUUCGUUUCCUUAGACCUCAGUUCAAGUGCCCCUAUUUAUUUCAAUAAGAACGCACAUAUCCCAGCUGUUUUUUGUUUGUCACCUCUAUUUAGUU	3.3

Sample 2 — method: protein-binding microarray; molecule type: hairpin DNA; medium: in vitro; concentration: not given; reference: not given; reading: higher = stronger binding; shared flanks, not repeated: GAGGCC … GGCCTCACACTCTT
Target: POU domain, class 6, transcription factor 1, POU and homeodomain (POU6F1, Homo sapiens, UniProt Q14863, residues 311-611)
Notes: whole hairpin DNA, median over replicate spots
Target sequence (chain): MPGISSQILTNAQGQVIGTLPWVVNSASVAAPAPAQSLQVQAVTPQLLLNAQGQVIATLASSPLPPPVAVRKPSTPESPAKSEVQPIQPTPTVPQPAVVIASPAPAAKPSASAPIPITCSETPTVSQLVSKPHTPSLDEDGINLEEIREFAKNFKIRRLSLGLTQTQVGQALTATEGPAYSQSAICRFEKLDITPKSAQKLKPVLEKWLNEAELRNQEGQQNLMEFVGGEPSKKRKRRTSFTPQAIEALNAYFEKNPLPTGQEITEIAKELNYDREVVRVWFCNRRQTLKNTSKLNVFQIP
Sequence	median fluorescence [a.u.]
ATATTTAGGTGCCTCCTGGCACCTAAATAT	433
ATAATGAGGTGCCTCCTGGCACCTCATTAT (5mC at 29)	1520
ATAATGAGCTGCCTCCTGGCAGCTCATTAT (5mC at 15)	6230
ATAATTAGCTGCCTCCTGGCAGCTAATTAT (5mC at 15)	3820
CGAATGAGGTGCCTCCTGGCACCTCATTCG	394
ATAATCGGGTGCCTCCTGGCACCCGATTAT (5mC at 12 30)	461
ATAATTATGTGCCTCCTGGCACATAATTAT	2140
ATAGTGAGGTGCCTCCTGGCACCTCACTAT (5mC at 33)	374
GTAATTAGGTGCCTCCTGGCACCTAATTAC	1120
ATAAGGAGGTGCCTCCTGGCACCTCCTTAT (5mC at 32)	425
ATAATTCGGTGCCTCCTGGCACCGAATTAT (5mC at 13 29)	548
ATAAATAGGTGCCTCCTGGCACCTATTTAT	572
CGAATTAGGTGCCTCCTGGCACCTAATTCG (5mC at 35)	411
ACGATGAGGTGCCTCCTGGCACCTCATCGT (5mC at 8)	336
CGAATTAGGTGCCTCCTGGCACCTAATTCG (5mC at 7)	459
ATAATTAGGTGCCTCCTGGCACCTAATTAT (5mC at 28)	2010
ACGATGAGGTGCCTCCTGGCACCTCATCGT (5mC at 8 34)	333
ATAATGCGGTGCCTCCTGGCACCGCATTAT (5mC at 29)	555
ATAATGAGCGGCCTCCTGGCCGCTCATTAT (5mC at 15)	2640
ATACGTAGGTGCCTCCTGGCACCTACGTAT (5mC at 10)	346

Sample 3 — organism: Saccharomyces cerevisiae; observed: binding; method: competitive growth deep sequencing; molecule type: peptide; strain: cyclin D3-Cln2 fusion strain; notes: peptide tiling library; reading: direction not given
Molecule	enrichment score
RKLDLEGIGR	-0.161
RKLHFEDEVT	-0.0723
NFETPEAETPIRSPFK	1.2
KVKRRLDLDIDGLQKE	-0.237
PPTFLSTGEIHAFLSS	-0.294
LRRQLSFSED	0.153
VSRNLRSSLKSSLHTL	-3.21
PQWPCGKHKRVLIFAS	-1.54
SCCKRKLVVGNGPEGP	-1.5
GFGFLLFICKLTF	-0.803
PPKPLKKLRFDIEGSD	-0.127
NNIRKALSFDNRGEEH	0.862
RRVLCFDS	-1.44
LRRKLFLDGNGSIS	-1.15
ARKRLELGNLGNPQ	-1.53
TTTTSPRTPPPLTVQD	2

Sample 4 — method: protein-binding microarray; molecule type: double-stranded DNA, one strand shown; medium: in vitro; concentration: 940 nM top; notes: 60-bp whole probe; added: salmon DNA 0.4 mg/ml; reference: random background probes; reading: higher = stronger binding; shared flanks, not repeated: GCCTAGCAC … GTCTTGATTCGCTTGACGCTGCTG
Target: Interferon regulatory factor 5, full length, phosphomimetic (IRF5, Homo sapiens, UniProt Q13568-2, residues 1-514, S451D/S453D/S456D/S462D)
Sequence	fitted relative affinity [z-score]
TCATCTCTGCCACTCAGACTGTGCTAG	0.698
TTAGGTTTCTTTATCCTTTAGTGCTAG	2.86
AGTTCTCTAGAAATTCCCACGGTGCTA	0.606
TCAAGTTTCATTCCTGAACTGTGCTAG	4.82
TTCATTTTGTTCATCATTGCGTGCTAG	0.236
TTCGGTATCGGTATCGGTTAGTGCTAG	12
GACGACCTCAGTTTCGAGACGTGCTAG	3.79
GACGGTCTAGGTCTCGGGACGTGCTAG	-0.215
TTAGATCTTAGTCTCGATTAGTGCTAG	3.18
TCAGTTCCTTATTTAAGACTGTGCTAG	0.129
GACGGCATCGGGTTTCGGGACGTGCTA	1.86
CGAGACCTCGTCTCTATCAAAGTGCTA	0.413
CTCCTTCAGTATCCTTAGATGTGCTAG	0.732
TTAGGACTGATTTTCCTTTAGTGCTAG	-0.28
GACGATTTCAGTATTGAGACGTGCTAG	0.261
TTAGAACTGGGGTTACGATTAGTGCTA	0.136
